Measurements collected from several papers.
Each numbered part is a random draw from the data of one study; scales do not carry over between parts. Changes are numbered by the printed parent chain.

Set 1
Target: ABI1, truncated, D143A, DHFR fusion (Arabidopsis thaliana)
Method: DHFR PCA, deep sequencing
Medium: yeast
Notes: methotrexate growth selection, single substitutions
Together with: (+)-ABA 0.11 µM
Relative to: wild-type fitted maximum
Direction: higher = stronger binding
Parent: PYL1, truncated, DHFR fusion (Arabidopsis thaliana); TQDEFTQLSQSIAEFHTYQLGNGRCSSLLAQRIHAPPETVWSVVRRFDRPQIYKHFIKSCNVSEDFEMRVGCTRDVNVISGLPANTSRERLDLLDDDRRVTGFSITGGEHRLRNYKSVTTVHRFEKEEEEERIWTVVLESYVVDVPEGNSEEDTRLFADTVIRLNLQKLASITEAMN
Substitution	relative binding score
V44L	14%
R113C	13.8%
E125P	33.6%
Y115Q	-8.37%
V137C	-7.5%
H122P	-2.03%
R88H	58.9%
K126S	68.5%

Set 2
Target: BATF, bZIP domain (human)
Method: DHFR protein complementation
Medium: yeast
Notes: single substitutions, most at no-binding floor
Relative to: wild-type JUN-FOS pair
Direction: higher = stronger binding
Parent: JUN, bZIP domain (human); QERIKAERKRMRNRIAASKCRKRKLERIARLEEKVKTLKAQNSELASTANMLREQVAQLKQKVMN; partner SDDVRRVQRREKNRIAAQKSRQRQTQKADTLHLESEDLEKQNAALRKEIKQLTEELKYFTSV
Substitution	binding fitness
T37F	0.0583 natural log
E33K	-0.212 natural log
K36D	-0.0982 natural log
Q58F	-0.13 natural log
L38F	-0.562 natural log
A29W	-0.216 natural log
N42I	-1.1 natural log
Q41R	-0.15 natural log
M51Y	0.0499 natural log
I28W	-0.053 natural log
L31D	-0.107 natural log

Set 3
Target: CCNB3, cyclin fold, Cln2 fusion (human)
Method: yeast growth competition, sequencing
Medium: yeast
Notes: strong parent motif
Relative to: not given
Direction: higher = stronger binding
Parent: BRCA2 docking peptide (human); PSIKRNLLNEFDR; partner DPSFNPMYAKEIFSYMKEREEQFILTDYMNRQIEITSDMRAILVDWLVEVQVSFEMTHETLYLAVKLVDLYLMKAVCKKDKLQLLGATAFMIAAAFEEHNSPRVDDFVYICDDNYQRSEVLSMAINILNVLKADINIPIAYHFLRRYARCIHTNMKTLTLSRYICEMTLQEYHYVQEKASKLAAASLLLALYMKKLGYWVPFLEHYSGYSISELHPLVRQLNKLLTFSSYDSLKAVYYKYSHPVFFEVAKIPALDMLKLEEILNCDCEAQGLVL
Substitution	normalised enrichment score
D12Q	0.988
D12H	0.371
P1K	1.39
S2P	0.732
S2D	0.8
S2Q	0.978
L8I	1.36
K4T	0.519

Single results of other studies
Molecule	target	assay	test system	setting	how to read	quantity	result
PhoQ, residues 284 288 289 292 302 303 SACGEM	PhoP, residues 12 14 15 18 19 NQAHL (Escherichia coli, UniProt P23836)	Sort-seq, measured: YFP reporter	E. coli	PhoQ-PhoP variant library, together with: 10 µM Mg2+	relative to: high Mg2+ state, higher = stronger signaling	fold induction	1.19

For quick reference, copied from above (set 2):
Substitution	binding fitness
E33K	-0.212 natural log
K36D	-0.0982 natural log
Q58F	-0.13 natural log
L38F	-0.562 natural log
